Experimental data pooled from the literature.
Each numbered part is a random draw from the data of one study; scales do not carry over between parts. Changes are numbered by the printed parent chain.

Set 1 — technique: protein binding microarray; molecule type: double-stranded DNA, one strand shown; matrix: in vitro; tested at: not given; baseline: not given; reading: higher = stronger binding
Target: Histone acetyltransferase KAT6A, winged helix 1, GST fusion (KAT6A, Homo sapiens, UniProt Q92794, residues 1-85)
Notes: 8-mer, flanks averaged, mean of 2 arrays, mostly near background
Residues (chain): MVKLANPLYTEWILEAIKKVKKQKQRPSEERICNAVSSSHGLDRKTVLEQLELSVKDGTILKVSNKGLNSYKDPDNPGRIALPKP
| Oligonucleotide | E-score |
| --- | --- |
| CCTGTACG | 0.083 |
| AAGGCGGA | 0.218 |
| GCCTTAAC | 0.0708 |
| AACGCTCT | -0.0813 |
| ACATAATG | -0.0366 |
| CGCACTTC | 0.119 |
| AAGTGACC | -0.222 |
| GTCAGTCA | -0.153 |
| CTTCTTCC | -0.034 |
| TCGTGCCA | -0.0911 |
| CGTTAAAG | 0.044 |
| CAGCTTGG | -0.34 |
| AGGCCCTG | -0.2 |
| CAAAACTG | -0.173 |

Set 2 — technique: protein-binding microarray; molecule type: double-stranded DNA, one strand shown; matrix: in vitro; tested at: 250 nM; notes: 60-bp whole probe; with: salmon DNA 0.4 mg/ml; baseline: random background probes; reading: higher = stronger binding; all sequences stand within: GCCTAGCAC … GTCTTGATTCGCTTGACGCTGCTG
Target: Interferon regulatory factor 7, full length, phosphomimetic (IRF7, Homo sapiens, UniProt Q92985, residues 1-503, S101K/S471D/S472D/S475D/S476D/S477D/S483D/S484D/S487D)
UniProt Q92985, sequence (whole entry, unmodified, looked up): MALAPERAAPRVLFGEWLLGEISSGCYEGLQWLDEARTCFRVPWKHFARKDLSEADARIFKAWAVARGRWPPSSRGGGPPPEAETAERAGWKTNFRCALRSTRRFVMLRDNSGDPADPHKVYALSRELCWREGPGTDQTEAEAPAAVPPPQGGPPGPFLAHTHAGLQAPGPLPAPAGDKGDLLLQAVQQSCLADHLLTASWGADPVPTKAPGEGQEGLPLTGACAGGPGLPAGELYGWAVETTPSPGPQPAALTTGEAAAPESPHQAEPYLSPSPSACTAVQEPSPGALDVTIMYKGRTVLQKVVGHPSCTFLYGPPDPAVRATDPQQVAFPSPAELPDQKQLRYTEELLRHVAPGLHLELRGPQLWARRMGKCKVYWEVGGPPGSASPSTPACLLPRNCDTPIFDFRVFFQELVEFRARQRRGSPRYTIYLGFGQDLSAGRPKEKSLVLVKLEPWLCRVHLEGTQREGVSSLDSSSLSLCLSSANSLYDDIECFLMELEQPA
| Oligonucleotide | log fluorescence |
| --- | --- |
| CCCAGGACCCTGGAACTGGCGTGCTAG | -0.363 z-score |
| TTAGAACTGAGTATAGATTAGTGCTAG | -0.138 z-score |
| GACAGTATCGGGACTGGGGACGTGCTA | -0.068 z-score |
| TCAATGATCTTCCTTCATACTGTGCTA | 0.0722 z-score |
| CTGGAATCAATTTATTGACCGTGCTAG | -0.165 z-score |
| GACGGTATCGGTTATCGGGACGTGCTA | 1.24 z-score |
| TTAGGTTCCGGTTGCGGTTAGTGCTAG | 4.22 z-score |
| TTAGATCCCAGACTGGATTAGTGCTAG | 0.173 z-score |
| TTAGGTCTCCTTATTCTTTAGTGCTAG | 0.354 z-score |
| TACTGCTGGAGCTCAAGAGCGTGCTAG | -0.939 z-score |
| GACGGACTGGAGTTTCGGGACGTGCTA | 1.34 z-score |
| TTTTCTCTCCCATTCTGAATGTGCTAG | 2.07 z-score |
| CCGTAGCTTCCTTTCGCCGCGTGCTAG | -0.0786 z-score |
| TTAAGTATCCTTTTCCTTTAGTGCTAG | 1.69 z-score |
| TTAGGTCTCCTACCGCTTTAGTGCTAG | 0.0014 z-score |

Set 3 — target: CCND2, cyclin fold, Cln2 fusion (human); technique: yeast growth competition, sequencing; matrix: yeast; notes: weak parent motif; baseline: not given; reading: higher = stronger binding
Starting sequence: RBL1 docking peptide (human); GSAKRRLFGEDPP; partner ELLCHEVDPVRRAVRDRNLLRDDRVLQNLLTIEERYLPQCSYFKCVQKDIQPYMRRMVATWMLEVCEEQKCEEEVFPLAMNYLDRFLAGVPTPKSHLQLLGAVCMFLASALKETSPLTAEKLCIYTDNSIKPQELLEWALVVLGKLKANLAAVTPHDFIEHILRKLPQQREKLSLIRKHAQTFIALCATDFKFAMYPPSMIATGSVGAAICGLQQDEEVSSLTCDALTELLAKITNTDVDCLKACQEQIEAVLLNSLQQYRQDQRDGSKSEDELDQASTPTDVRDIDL
| Substitution | normalised enrichment score |
| --- | --- |
| GSAKNRLFGEDPP [R5N] | 0.346 |
| WSAKRRLFGEDPP [G1W] | 0.342 |
| GSVKRRLFGEDPP [A3V] | 0.223 |
| GSAPRRLFGEDPP [K4P] | -0.236 |
| GSAARRLFGEDPP [K4A] | 0.639 |
| GSAKRRLFGEVPP [D11V] | 0.407 |
| TSAKRRLFGEDPP [G1T] | 0.35 |
| GSACRRLFGEDPP [K4C] | 0.099 |
| GSAKRRLFGEDPS [P13S] | -0.011 |
| GSAKRRLFGGDPP [E10G] | -0.2 |
| GSAKRVLFGEDPP [R6V] | 0.0644 |
| GSAKRRLFGCDPP [E10C] | 0.12 |
| GSAKRRLFGEKPP [D11K] | 0.0585 |

Single results of other studies — technique: surface plasmon resonance; molecule type: double-stranded DNA, one strand shown; matrix: in vitro; tested at: 1 nM to 1 µM; notes: 10-bp κB site, 1:1 kinetic fit, 10 °C; reading: higher = slower dissociation
Target: Transcription factor p65, Rel homology region (Rela, Mus musculus, UniProt Q04207, residues 1-314)
UniProt Q04207, sequence (1-314, looked up): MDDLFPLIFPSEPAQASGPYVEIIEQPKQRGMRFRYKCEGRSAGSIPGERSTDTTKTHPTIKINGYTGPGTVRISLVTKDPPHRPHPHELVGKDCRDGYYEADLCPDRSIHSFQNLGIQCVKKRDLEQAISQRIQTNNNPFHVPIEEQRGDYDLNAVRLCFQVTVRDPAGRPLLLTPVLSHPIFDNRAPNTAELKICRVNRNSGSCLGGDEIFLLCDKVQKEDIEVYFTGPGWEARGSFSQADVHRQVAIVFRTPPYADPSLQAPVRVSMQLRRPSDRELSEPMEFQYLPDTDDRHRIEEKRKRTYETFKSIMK
| Oligonucleotide | dissociation half-life [s] |
| --- | --- |
| GGGGGTTTTT | 7 |
| GGGGGGAGTA | 4 |

Some of these lines once more (set 3):
| Substitution | normalised enrichment score |
| --- | --- |
| GSAKNRLFGEDPP [R5N] | 0.346 |
| TSAKRRLFGEDPP [G1T] | 0.35 |
| GSAKRRLFGEVPP [D11V] | 0.407 |
| GSACRRLFGEDPP [K4C] | 0.099 |
| GSAKRRLFGEDPS [P13S] | -0.011 |
| GSVKRRLFGEDPP [A3V] | 0.223 |
